Assay results from different studies.
± gives the spread as reported.

Structure (SMILES)	cell line	test	test system	conditions	how to read	quantity	result
CC(C)C[C@@H]1NC(=O)[C@H](C(C)C)NC(=O)[C@H](CC(N)=O)NC(=O)[C@H](CO)NC(=O)[C@H](CO)NC(=O)[C@H](CC(=O)O)NC(=O)[C@H](CC(=O)O)NC(=O)[C@H](Cc2ccccc2)NC(=O)[C@H](Cc2ccc(O)cc2)NC(=O)[C@@H](N)CSSC[C@@H](C(=O)N[C@@H](CCCCN)C(=O)N[C@@H](CCCCN)C(=O)N[C@@H](Cc2ccc(O)cc2)C(=O)N[C@@H](CCCNC(=N)N)C(=O)N[C@@H](CO)C(=O)O)NC1=O	MCT cells	qPCR, refers to: Snail, CTGF		concentration not given, together with: TGF-β1 and EGF		mRNA level	inhibited
CN1CCN(C(=O)N(CCCCCCC(=O)NO)c2ccc(-c3ccc4cnn(C)c4c3)cc2)CC1	MM1.S and RPMI-8226	immunoblot, refers to: β-catenin and c-Myc		concentration not given, 24 h		protein level	decreased
[Cl-].[Cl-].[Ru+2].c1ccc(-c2cc(-c3ccccn3)nc(-c3ccccn3)c2)cc1.c1ccc(-c2ccnc3c2ccc2c(-c4ccccc4)ccnc23)cc1	A549	oxygen consumption rate, Seahorse extracellular flux		1 h, dark		lowest concentration inhibiting OCR	> 3.3 µM
CCCCCCCCCCCCCCCC(=O)N[C@@H](CCC(=O)NCCCC[C@H](NC(=O)[C@H](CC(=O)O)NC(=O)[C@H](CO)NC(=O)[C@@H](NC(=O)[C@H](Cc1ccccc1)NC(=O)[C@@H](NC(=O)CNC(=O)[C@H](CCC(N)=O)NC(=O)[C@H](CO)NC(=O)[C@@H](N)Cc1c[nH]cn1)[C@@H](C)O)[C@@H](C)O)C(=O)N[C@@H](CO)C(=O)N[C@@H](CCC(=O)O)C(=O)N[C@@H](Cc1ccc(O)cc1)C(=O)N[C@@H](CC(C)C)C(=O)N[C@@H](CC(=O)O)C(=O)N[C@@H](CO)C(=O)N[C@@H](CCC(=O)O)C(=O)N[C@@H](CCCNC(=N)N)C(=O)N[C@@H](C)C(=O)N[C@@H](CCCNC(=N)N)C(=O)N[C@@H](CC(=O)O)C(=O)N[C@@H](Cc1ccccc1)C(=O)N[C@H](C(=O)N[C@@H](C)C(=O)N[C@@H](Cc1c[nH]c2ccccc12)C(=O)N[C@@H](CC(C)C)C(=O)N[C@@H](CCC(=O)O)C(=O)N[C@@H](C)C(=O)NCC(=O)NCC(=O)O)C(C)C)C(=O)O	primary mouse hepatocytes	cAMP accumulation, agonist		0.1% BSA		EC50	0.84 ± 0.08 nM
CCCCCCCCCCCCCCCC(=O)OCC(CSC[C@H](N)C(=O)N[C@@H](CO)C(=O)N[C@@H](CCCCN)C(=O)N[C@@H](CCCCN)C(=O)N[C@@H](CCCCN)C(=O)N[C@@H](CCCCN)C(=O)NCCCCCC(=O)N[C@@H](CCCCN)C(=O)N[C@@H](CC(C)C)C(=O)N[C@H](C(=O)N[C@@H](Cc1ccccc1)C(=O)N[C@@H](Cc1ccccc1)C(=O)N[C@@H](Cc1ccc2ccccc2c1)C(=O)O)C(C)C)OC(=O)CCCCCCCCCCCCCCC (some centres unmarked)	BV-2	western blot, refers to: MSR1		1.0 µM, 12 h		protein level	increased
C=CC(=O)N1CCCC(n2c(=O)c3ncccc3n(Cc3ccc(Oc4ccccc4)cc3)c2=O)C1 (centres unmarked)	acute leukemia cell lines	cell proliferation		concentration not given, 72 h		antiproliferative activity	inactive
O=[N+]([O-])c1c(Nc2cc(F)cc(Cl)c2)ccc2nonc12	Hep3B	refers to: EPAS1		1 or 10 µM		mRNA level	no effect
Cc1ccc(C(C)C)cc1.O=C([N-]c1nc2ccccc2[nH]1)c1cnccn1.[Cl-].[Ru+2]	Caco-2	cytotoxicity, MTT			relative to: KMST-6 over Caco-2	selectivity index	> 2
Cc1cccc(O[C@H]2CCC[C@@H](C(C)CNCc3ccncc3)C2)c1 (relative stereo)	MC65 Tet-On cells			1 µM, 24 h		increase in NADH	≤ 25%
C=C(CC)C(=O)c1ccc(OCC(=O)NCCCCNC(=O)COc2ccc(C(=O)C(=C)CC)c(Cl)c2Cl)c(Cl)c1Cl	SK-OV-3/DDP cisplatin-resistant	cell growth, CCK-8		0.2 µM, together with: cisplatin		sensitisation to cisplatin	~3 fold
COc1ccc(S(=O)(=O)N2CCc3ccccc3C2)cc1N1CCN(C(=O)c2ccc(F)cc2C(F)(F)F)CC1	mouse midbrain dopamine neurons			75 nM, 48 h, together with: MPP+ 2 µM		TH-positive neuron count	335 ± 20.3
CC(C)(C)C(=O)Nc1ccc2[nH]c(CN3CCC(N(CCCN4CCOCC4)CC4OC(n5cnc6c(N)ncnc65)C(O)C4O)CC3)nc2c1 (centres unmarked)	H460 R231Q cells	Western blot		5 µM	relative to: untreated	RAF1, p-MEK, p-ERK levels	decreased
CC(=C(c1ccc(O)cc1)c1ccc(Cl)cc1)c1ccc(Cl)cc1	LOX IMVI	cell growth or viability, SRB				GI50	420 nM
O=Cc1c(O)ccc2ccccc12	HUVEC	RNA sequencing, refers to: MYBL2		75 µM, 24 h	relative to: DMSO	log2 fold change	-2.94
COc1cc(CNC(=O)C[C@H](C)CCC=C(C)C)ccc1OCc1cn(-c2ccccc2[N+](=O)[O-])nn1	MDA-MB-435 melanoma cells	SRB		10 µM, 48 h		growth percent	74.9%
CC(C)=CCc1c(OCC2OC2(C)C)ccc2ccc(=O)oc12 (centres unmarked)	COLO 320 (ABCB1-overexpressing, multidrug-resistant)	cell growth		150 µM starting, CI at ED50, together with: doxorubicin, ratio 69.68:1		combination index	0.83
COCCO[C@H]1CC[C@H](Nc2cc(=O)n(C)c3ccc(-c4cncs4)cc23)CC1	PBMC	ELISA		10 µM, 48 h	relative to: untreated	IFN-γ increase	82.9%
CC(C)C[C@@H](NC(=O)[C@H](C)NC(=O)CNC(=O)[C@@H](NC=O)C(C)C)C(=O)N[C@@H](C)C(=O)N[C@@H](C(=O)N[C@H](C(=O)N[C@@H](C(=O)N[C@@H](Cc1c[nH]c2ccccc12)C(=O)N[C@H](CC(C)C)C(=O)N[C@@H](Cc1c[nH]c2ccccc12)C(=O)N[C@H](CC(C)C)C(=O)N[C@@H](Cc1c[nH]c2ccccc12)C(=O)N[C@H](CC(C)C)C(=O)N[C@@H](Cc1c[nH]c2ccccc12)C(=O)NCCO)C(C)C)C(C)C)C(C)C	digitonin-permeabilized MCF7	mitochondrial ATP production, inhibitor		37 °C		EC50	67 ± 5 nM
FC(F)(F)c1ccnc(-c2cc(C(F)(F)F)ccn2)c1.FC(F)(F)c1ccnc(-c2cc(C(F)(F)F)ccn2)c1.[Cl-].[Cl-].[Ru+2].c1csc(-c2ccc(-c3ccc(-c4nc5c6cccnc6c6ncccc6c5[nH]4)s3)s2)c1	SK-MEL-28	cell viability		normoxia, together with: red light 633 nm		EC50	4600 nM
CC(C)CNC(=O)[C@@H](NC[C@@H](O)[C@H](Cc1ccccc1)NC(=O)c1cc(C(=O)N[C@H](C)c2ccccc2)cc(N(C)S(C)(=O)=O)c1)[C@H](C)O	MIN6	Western blot, refers to: Tmem27 C-terminal fragment		0.9 µM, together with: DAPT		Tmem27 processing	inhibited
Clc1ccc(NN=C(c2ccccc2)c2ccccn2)nc1	NCI-H358		cell lysate	0.1 to 2 µM	relative to: untreated	H3K9me3 demethylase activity	decreased
CCOC(=O)c1nc2cc(Cl)c(Cl)cc2nc1N1CCN(C(=O)Nc2ccc(N3CCNCC3)cc2)CC1	RAW264.7			5 µM, together with: LPS		lactate production	decreased

Structure (SMILES)	cell line	test	test system	conditions	how to read	quantity	result
Cc1cc(C)nc(NC(=S)N2CCN(Cc3ccc(C(F)(F)F)cc3)CC2)c1	HCC70	cell viability, CellTiter-Glo		4 days		EC50	16000 nM
COc1cc(CNC(=O)C[C@H](C)CCC=C(C)C)ccc1OCc1cn(-c2ccc(Br)cc2)nn1	EKVX	SRB		10 µM, 48 h		growth percent	79%
Cc1nc(C)c(C=[N+]([O-])C(C)(C)C)nc1C	rat primary cerebellar granule neurons			30 µM, together with: MPP+		ATP content increase	27.5%
COc1ccc([C@@H]2CC(=O)c3c(O)cc(O[C@@H]4O[C@H](CO[C@@H]5O[C@@H](C)[C@H](O)[C@@H](O)[C@H]5O)[C@@H](O[C@H]5O[C@H](CO)[C@@H](O)[C@H](O)[C@H]5O)[C@H](O)[C@H]4O)cc3O2)cc1O	MRC5	trypan blue exclusion		50 µg/mL, 72 h		cell count	16200 ± 602
Cc1nn(-c2ccc(S(=O)(=O)N[C@@H](CO)CC(C)C)cc2)c2nn3nnnc3nc12	HT-29	DNA damage, alkaline comet		2 µM, 24 h		tail DNA	29.5 ± 2.44%
COc1ccc(/C=N\NC(=O)[C@]2(C)C3CC[C@]4(C)C(C(=O)C=C5C6[C@@H](C)[C@H](C)CC[C@]6(C)CC[C@]54C)[C@@]3(C)CC[C@H]2OC(C)=O)cc1OC (some centres unmarked)	RAW264.7	NO release, inhibitor, Griess		10 µM, 24 h, LPS-stimulated		inhibition	68.6%
Cc1cc(Nc2ccc(NC(=O)c3ccc(NC(=O)c4ccncc4)cc3)cc2)nc(N)n1	KG-1 with methylated CMV-luciferase	luciferase reporter gene		1 µM, 24 h	relative to: untreated	reporter reactivation	1 ± 0.1 fold
COc1cc(CNC(=O)C[C@H](C)CCC=C(C)C)ccc1OCc1cn(-c2ccc(C#N)cc2)nn1	Hs-578T breast cancer cells	SRB		10 µM, 48 h		growth percent	76%
CC1(C)OC(=O)C[C@H](O)[C@]2(C)[C@H]3CC[C@@]4(C)[C@H](c5ccoc5)OC(=O)[C@H]5O[C@]54[C@]3(C)C(=O)C[C@@H]12	COLO 320 (ABCB1-overexpressing, multidrug-resistant)	cell growth		200 µM starting, CI at ED50, together with: doxorubicin, ratio 371.2:1		combination index	0.62
COc1cc(CNC(=O)C[C@H](C)CCC=C(C)C)ccc1OCc1cn(-c2ccccc2Cl)nn1	Hs-578T breast cancer cells	SRB		10 µM, 48 h		growth percent	81%
CC(C)Cc1ccc(C(C)C(=O)N/N=C/c2ccc(OCC(=O)N/N=C/c3ccc([N+](=O)[O-])cc3)cc2)cc1 (centres unmarked)	U87 MG	MTT		150 µM, 48 h		viability	61.8%
N[C@H](CSC(F)(F)[18F])C(=O)O	C6			concentration not given, 120 min		protein incorporation	~13%
COc1cc(CNC(=O)C[C@H](C)CCC=C(C)C)ccc1OCc1cn(-c2ccc(Cl)cc2Cl)nn1	LOX IMVI	SRB		10 µM, 48 h		growth	80.7%
COc1cc2c(OC3OCC(OC)C(OC)C3OC(=O)c3ccc(Br)cc3)c3c(c(-c4ccc5c(c4)OCO5)c2cc1OC)C(=O)OC3 (centres unmarked)	CAL-27	western blot, refers to: pro- and mature cathepsin D		concentration not given, 72 h		protein level	decreased
Cc1ccc(Nc2ncc3c(n2)N(C2CCCCC2)C(=O)N(c2cc(NC(=O)c4cccc(C(F)(F)F)c4)ccc2C)C3)cn1	Hep3B	cell growth or viability, ATP luminescence		72 h		GI50	1540 nM
CC(=O)c1c(C)c2cnc(Nc3ccc(N4CCNCC4)cn3)nc2n(C2CCCC2)c1=O	mAb-expressing recombinant CHO	growth arrest		24 h, added at day 0		concentration at maximal effect	5 to 10 µM
COc1cc(CNC(=O)C[C@H](C)CCC=C(C)C)ccc1OCc1cn(-c2ccccc2)nn1	MDA-MB-435 melanoma cells	SRB		10 µM, 48 h		growth percent	97.2%
c1cc(-c2nc3ccc(N4CCOCC4)cc3[nH]2)cc(N2CCc3ccccc3C2)c1	HT-22	protection from ferroptosis, CCK-8 viability		24 h, together with: 1 µM erastin		EC50	1700 nM
COc1cccc(/C=N/NC(=O)COc2ccc(/C=N/NC(=O)C(C)c3ccc(CC(C)C)cc3)cc2)c1O (centres unmarked)	U87 MG	MTT		150 µM, 48 h		viability	22.1%
COc1cc(CNC(=O)C[C@H](C)CCC=C(C)C)ccc1OCc1cn(-c2cccc(Cl)c2)nn1	ACHN	SRB		10 µM, 48 h		growth percent	80.2%
CC(C)Cc1ccc(C(C)C(=O)NN=Cc2ccc(OCC(=O)NN=Cc3cccc([N+](=O)[O-])c3)cc2)cc1 (centres unmarked)	U87 MG	MTT		10 µM, 48 h		viability	80.5%
O=C(/C=C/c1ccccc1)Oc1ccc2c(c1)O/C(=C\C=C\c1ccccc1)C2=O	HeLa GFP-LC3	Western blot		concentration not given, together with: EBSS starvation		LC3-II level	decreased

A few entries again:
Structure (SMILES)	cell line	test	test system	conditions	how to read	quantity	result
CN1CCN(C(=O)N(CCCCCCC(=O)NO)c2ccc(-c3ccc4cnn(C)c4c3)cc2)CC1	MM1.S and RPMI-8226	immunoblot, refers to: β-catenin and c-Myc		concentration not given, 24 h		protein level	decreased
CC(C)CNC(=O)[C@@H](NC[C@@H](O)[C@H](Cc1ccccc1)NC(=O)c1cc(C(=O)N[C@H](C)c2ccccc2)cc(N(C)S(C)(=O)=O)c1)[C@H](C)O	MIN6	Western blot, refers to: Tmem27 C-terminal fragment		0.9 µM, together with: DAPT		Tmem27 processing	inhibited
COc1cccc(/C=N/NC(=O)COc2ccc(/C=N/NC(=O)C(C)c3ccc(CC(C)C)cc3)cc2)c1O (centres unmarked)	U87 MG	MTT		150 µM, 48 h		viability	22.1%
COCCO[C@H]1CC[C@H](Nc2cc(=O)n(C)c3ccc(-c4cncs4)cc23)CC1	PBMC	ELISA		10 µM, 48 h	relative to: untreated	IFN-γ increase	82.9%
[Cl-].[Cl-].[Ru+2].c1ccc(-c2cc(-c3ccccn3)nc(-c3ccccn3)c2)cc1.c1ccc(-c2ccnc3c2ccc2c(-c4ccccc4)ccnc23)cc1	A549	oxygen consumption rate, Seahorse extracellular flux		1 h, dark		lowest concentration inhibiting OCR	> 3.3 µM
